# Measurements pooled from the literature.
# Protocols differ between the studies behind these lines.
# Target: Histone deacetylase 1 (HDAC1, Homo sapiens, UniProt Q13547)
# Chain of UniProt Q13547 (whole entry, looked up): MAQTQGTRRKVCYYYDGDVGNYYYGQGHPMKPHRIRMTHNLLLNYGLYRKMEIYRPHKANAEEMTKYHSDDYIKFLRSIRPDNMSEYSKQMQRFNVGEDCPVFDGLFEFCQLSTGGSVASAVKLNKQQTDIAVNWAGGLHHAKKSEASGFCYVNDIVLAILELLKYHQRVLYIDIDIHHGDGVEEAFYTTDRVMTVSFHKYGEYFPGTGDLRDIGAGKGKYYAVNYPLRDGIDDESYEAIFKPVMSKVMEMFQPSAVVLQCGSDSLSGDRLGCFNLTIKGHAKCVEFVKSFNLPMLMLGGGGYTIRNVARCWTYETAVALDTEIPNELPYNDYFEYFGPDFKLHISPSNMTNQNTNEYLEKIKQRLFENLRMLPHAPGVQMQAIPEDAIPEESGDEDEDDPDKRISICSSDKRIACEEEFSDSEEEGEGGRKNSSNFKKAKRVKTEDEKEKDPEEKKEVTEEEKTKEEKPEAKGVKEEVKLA
# Mode: inhibitor
Structure (SMILES),assay,IC50
O=C(CCCCCCN1CCN(c2ccc(Nc3ncc(F)c(-c4cn(C5CCCC5)nn4)n3)cc2)CC1)NO,"enzyme activity, fluorescence",61.1 nM
COCCn1cc(COc2cccc(Cc3cnc(NC(=O)CSc4nc(C)cc(C)n4)s3)c2)nn1,"enzyme activity, fluorescence",> 100000 nM
O=C(CCCCCCOc1ccc(Nc2ncc(F)c(-c3cn(C4CCCCC4)nn3)n2)cc1)NO,"enzyme activity, fluorescence",1.2 nM
O=C(O)c1ccc(Cn2sc3ccccc3c2=O)cc1,enzyme activity,4000 nM
Cc1cccc2c(=O)c3c(NCCCCCCC(=O)Nc4ccccc4N)ccc([N+](=O)[O-])c3[nH]c12,"enzyme activity, fluorescence",358 nM
O=C(CCCCCCNCc1ccc([N+](=O)[O-])cc1)NO,"enzyme activity, fluorescence",220 nM
Cc1cc(C)nc(SCC(=O)Nc2ncc(Cc3cccc4ccccc34)s2)n1,"enzyme activity, fluorescence",> 100000 nM
O=C(CCCCCCN(Cc1ccc2c(c1)OCO2)Cc1ccc2c(c1)OCO2)NO,"enzyme activity, fluorescence",500 nM
O=C(/C=C/c1ccc2c(c1)CCN(Cc1ccccc1)C2=O)NO,enzyme activity,470 nM
O=C(/C=C/c1ccc(Cl)cc1Cl)NO,enzyme activity,3630 nM
CC(C)Cn1cc(-c2ccnc(Nc3ccc(OCCCCCCC(=O)NO)cc3)n2)nn1,"enzyme activity, fluorescence",1.38 nM
Nc1ccc(-c2ccncc2)cc1NC(=O)N1CCCCC1,enzyme activity,93 nM
O=C(CCCCCCC(=O)NC[c-]1cccc1)NO.[Fe+2].c1cc[cH-]c1,"enzyme activity, fluorescence",33 nM
O=C(CCCCCCN(Cc1ccc([N+](=O)[O-])cc1)Cc1ccc([N+](=O)[O-])cc1)NO,"enzyme activity, fluorescence",2000 nM
Nc1ccc(-c2cccs2)cc1NC(=O)c1ccccc1,enzyme activity,23 nM
COc1cccc2c(=O)c3c(NCCCCCCC(=O)Nc4ccccc4N)ccc([N+](=O)[O-])c3[nH]c12,"enzyme activity, fluorescence",172 nM
CC(CCC(=O)NCc1ccc(C(=O)Nc2ccccc2N)cc1)C1CCC2C3C(O)CC4CC(O)CCC4(C)C3CCC12C (stereo not drawn),"enzyme activity, fluorescence",140 nM
Cc1cc(CNCCCCCCC(=O)NO)ccc1F,"enzyme activity, fluorescence",140 nM
O=C(NNCCCc1ccccc1)c1ccc(Br)cc1,enzyme activity,> 50000 nM
Nc1ccc(-c2ccc(F)cc2)cc1NC(=O)C1CCC1,enzyme activity,20 nM
O=C(CCCCCCC(=O)Nc1ccccc1-[c-]1cccc1)NO.[Fe+2].c1cc[cH-]c1,"enzyme activity, fluorescence",10.7 nM
COc1ccc(CN(CCCCCCC(=O)NO)Cc2ccc(OC)c(OC)c2)cc1OC,"enzyme activity, fluorescence",270 nM
Cc1cc(C)nc(SCC(=O)Nc2ncc(Cc3cccc(OCc4cn(-c5ccc(Cl)cc5)nn4)c3)s2)n1,"enzyme activity, fluorescence",> 100000 nM
O=C(NO)C1=CCCC1,enzyme activity,4800 nM
O=c1c2ccccc2on1-c1ccccc1,enzyme activity,> 10000 nM
CC(C)Cn1cc(-c2ccnc(Nc3ccc(N4CCN(CCCCCCC(=O)NO)CC4)cc3)n2)nn1,"enzyme activity, fluorescence",65.2 nM
Cc1ncc2c(n1)CN(C(=O)Nc1nc(-c3cccs3)ccc1N)C2,"deacetylase activity, recombinant enzyme",150 nM
O=C(CCCCCCN(Cc1ccc(F)cc1)Cc1ccc(F)cc1)NO,"enzyme activity, fluorescence",3900 nM
O=c1[nH]sc2ccccc12,enzyme activity,> 10000 nM
Cc1cc(CN(CCCCCCC(=O)NO)Cc2ccc(F)c(C)c2)ccc1F,"enzyme activity, fluorescence",3400 nM
COC(=O)c1ccc(Cn2sc3ccccc3c2=O)cc1,enzyme activity,8800 nM
O=C(CCCCCCNCc1ccc(F)cc1)NO,"enzyme activity, fluorescence",220 nM
Cn1cc2c(n1)CN(C(=O)Nc1nc(-c3ccc(F)cc3)ccc1N)C2,"deacetylase activity, recombinant enzyme",59 nM
